Experimental data of several laboratories.
Each line is one published result; not all experiments were run side by side. ± gives the spread as reported.
Aldo-keto reductase family 1 member B1: Aldo-keto reductase family 1 member B1 (Bos taurus, UniProt P16116)
PPO3: PPO3 (Agaricus bisporus, UniProt C7FF04)
Chain of UniProt C7FF04 (whole entry, looked up): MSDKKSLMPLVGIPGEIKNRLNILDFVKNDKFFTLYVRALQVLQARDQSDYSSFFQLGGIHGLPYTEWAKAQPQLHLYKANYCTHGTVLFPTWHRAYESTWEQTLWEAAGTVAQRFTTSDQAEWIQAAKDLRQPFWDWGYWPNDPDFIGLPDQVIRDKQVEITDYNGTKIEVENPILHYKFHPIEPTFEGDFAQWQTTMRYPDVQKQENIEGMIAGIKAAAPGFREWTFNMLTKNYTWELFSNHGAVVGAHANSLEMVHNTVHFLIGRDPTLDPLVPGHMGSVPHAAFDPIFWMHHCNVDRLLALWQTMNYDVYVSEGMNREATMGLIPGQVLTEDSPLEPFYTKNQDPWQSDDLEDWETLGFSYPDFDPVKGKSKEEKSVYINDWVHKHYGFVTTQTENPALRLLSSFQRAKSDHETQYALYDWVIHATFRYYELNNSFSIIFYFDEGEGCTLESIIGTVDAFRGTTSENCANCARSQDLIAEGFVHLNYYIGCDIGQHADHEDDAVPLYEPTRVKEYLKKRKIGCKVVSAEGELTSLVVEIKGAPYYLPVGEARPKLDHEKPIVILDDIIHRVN
IDO1: Indoleamine 2,3-dioxygenase 1 (IDO1, Homo sapiens, UniProt P14902)
Chain of UniProt P14902 (whole entry, looked up): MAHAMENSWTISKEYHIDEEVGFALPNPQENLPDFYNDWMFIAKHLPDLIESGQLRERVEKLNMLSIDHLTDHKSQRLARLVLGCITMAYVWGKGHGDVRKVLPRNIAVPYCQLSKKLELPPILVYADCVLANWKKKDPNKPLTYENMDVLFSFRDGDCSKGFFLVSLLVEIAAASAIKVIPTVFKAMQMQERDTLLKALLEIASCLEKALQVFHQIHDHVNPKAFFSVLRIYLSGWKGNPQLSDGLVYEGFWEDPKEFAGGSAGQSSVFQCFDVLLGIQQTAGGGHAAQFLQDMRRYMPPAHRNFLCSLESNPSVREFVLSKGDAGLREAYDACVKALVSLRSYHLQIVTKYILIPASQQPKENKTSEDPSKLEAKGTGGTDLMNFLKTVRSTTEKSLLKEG
Genome polyprotein NS2B-NS3 protease: Genome polyprotein, NS2B-NS3 protease (Dengue virus type 2, UniProt P14340)
KDM1A with CoREST: Lysine-specific histone demethylase 1A, with CoREST (KDM1A, Homo sapiens, UniProt O60341)
SCN10A: Sodium channel protein type 10 subunit alpha (SCN10A, Homo sapiens, UniProt Q9Y5Y9)
Chain of UniProt Q9Y5Y9 (whole entry, looked up): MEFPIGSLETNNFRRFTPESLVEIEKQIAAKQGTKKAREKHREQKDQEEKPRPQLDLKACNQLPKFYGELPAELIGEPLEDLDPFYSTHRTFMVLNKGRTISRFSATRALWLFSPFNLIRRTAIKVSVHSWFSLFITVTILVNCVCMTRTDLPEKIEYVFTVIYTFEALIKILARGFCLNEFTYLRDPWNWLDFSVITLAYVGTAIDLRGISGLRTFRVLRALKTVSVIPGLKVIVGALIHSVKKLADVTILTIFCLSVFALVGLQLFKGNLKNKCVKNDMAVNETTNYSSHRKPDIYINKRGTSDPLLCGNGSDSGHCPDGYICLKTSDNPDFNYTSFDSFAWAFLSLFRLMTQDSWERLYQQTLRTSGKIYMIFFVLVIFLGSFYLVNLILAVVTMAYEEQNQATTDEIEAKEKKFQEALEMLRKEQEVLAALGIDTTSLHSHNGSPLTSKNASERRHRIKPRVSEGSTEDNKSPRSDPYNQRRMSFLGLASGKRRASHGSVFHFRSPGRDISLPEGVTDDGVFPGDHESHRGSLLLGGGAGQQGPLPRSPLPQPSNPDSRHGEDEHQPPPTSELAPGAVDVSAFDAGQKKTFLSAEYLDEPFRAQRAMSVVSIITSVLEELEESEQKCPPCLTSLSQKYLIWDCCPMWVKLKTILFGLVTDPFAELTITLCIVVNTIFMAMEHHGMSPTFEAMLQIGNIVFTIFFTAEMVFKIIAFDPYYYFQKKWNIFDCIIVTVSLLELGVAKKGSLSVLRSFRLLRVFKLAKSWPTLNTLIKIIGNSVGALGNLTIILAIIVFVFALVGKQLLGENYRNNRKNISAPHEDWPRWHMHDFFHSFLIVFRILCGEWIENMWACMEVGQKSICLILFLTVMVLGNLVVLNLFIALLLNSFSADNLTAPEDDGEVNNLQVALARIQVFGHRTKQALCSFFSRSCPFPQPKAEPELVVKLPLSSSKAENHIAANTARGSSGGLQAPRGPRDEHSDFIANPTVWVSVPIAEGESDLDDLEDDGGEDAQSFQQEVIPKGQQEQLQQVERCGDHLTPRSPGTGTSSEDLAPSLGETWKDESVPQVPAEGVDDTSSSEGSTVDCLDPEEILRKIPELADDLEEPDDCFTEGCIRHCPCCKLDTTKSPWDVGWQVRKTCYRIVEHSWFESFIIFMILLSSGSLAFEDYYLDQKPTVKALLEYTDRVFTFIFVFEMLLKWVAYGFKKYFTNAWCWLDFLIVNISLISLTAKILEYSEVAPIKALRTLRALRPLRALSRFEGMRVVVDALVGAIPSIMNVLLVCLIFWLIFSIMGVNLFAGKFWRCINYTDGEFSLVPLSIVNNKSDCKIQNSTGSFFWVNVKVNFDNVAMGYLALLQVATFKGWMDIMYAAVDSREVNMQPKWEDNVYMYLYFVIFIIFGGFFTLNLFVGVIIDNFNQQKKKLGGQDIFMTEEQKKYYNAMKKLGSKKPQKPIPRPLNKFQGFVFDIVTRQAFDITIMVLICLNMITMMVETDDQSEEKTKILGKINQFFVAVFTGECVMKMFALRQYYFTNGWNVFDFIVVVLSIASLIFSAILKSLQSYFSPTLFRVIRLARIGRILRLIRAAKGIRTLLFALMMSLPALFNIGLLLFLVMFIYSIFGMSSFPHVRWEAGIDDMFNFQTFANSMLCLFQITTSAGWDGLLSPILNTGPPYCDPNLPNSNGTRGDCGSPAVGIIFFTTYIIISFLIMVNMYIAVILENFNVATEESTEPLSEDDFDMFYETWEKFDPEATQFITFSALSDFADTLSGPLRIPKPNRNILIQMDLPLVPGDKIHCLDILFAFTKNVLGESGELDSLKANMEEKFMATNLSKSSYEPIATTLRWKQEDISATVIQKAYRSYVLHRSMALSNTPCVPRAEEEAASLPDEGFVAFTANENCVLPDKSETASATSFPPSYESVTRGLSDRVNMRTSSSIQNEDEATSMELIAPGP
Chain of UniProt P03952 (whole entry, looked up): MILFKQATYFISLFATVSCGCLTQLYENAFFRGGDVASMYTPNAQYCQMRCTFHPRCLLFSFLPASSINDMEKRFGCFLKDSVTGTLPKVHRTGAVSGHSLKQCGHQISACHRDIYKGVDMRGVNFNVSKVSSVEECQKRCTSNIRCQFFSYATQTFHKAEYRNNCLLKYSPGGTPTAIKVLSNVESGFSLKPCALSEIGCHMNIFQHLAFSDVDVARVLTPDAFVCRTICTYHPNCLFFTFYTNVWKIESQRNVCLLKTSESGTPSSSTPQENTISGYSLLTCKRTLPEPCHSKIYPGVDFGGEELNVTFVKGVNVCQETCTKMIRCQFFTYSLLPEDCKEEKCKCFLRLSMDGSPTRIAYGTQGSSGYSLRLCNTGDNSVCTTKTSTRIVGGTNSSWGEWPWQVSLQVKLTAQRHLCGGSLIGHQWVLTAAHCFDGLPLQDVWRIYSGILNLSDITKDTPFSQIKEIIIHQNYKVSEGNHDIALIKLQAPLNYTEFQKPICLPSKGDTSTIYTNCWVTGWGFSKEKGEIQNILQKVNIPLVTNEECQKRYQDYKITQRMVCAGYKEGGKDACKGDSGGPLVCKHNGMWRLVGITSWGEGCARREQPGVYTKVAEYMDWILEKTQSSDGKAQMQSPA
Chain of UniProt P35520 (whole entry, looked up): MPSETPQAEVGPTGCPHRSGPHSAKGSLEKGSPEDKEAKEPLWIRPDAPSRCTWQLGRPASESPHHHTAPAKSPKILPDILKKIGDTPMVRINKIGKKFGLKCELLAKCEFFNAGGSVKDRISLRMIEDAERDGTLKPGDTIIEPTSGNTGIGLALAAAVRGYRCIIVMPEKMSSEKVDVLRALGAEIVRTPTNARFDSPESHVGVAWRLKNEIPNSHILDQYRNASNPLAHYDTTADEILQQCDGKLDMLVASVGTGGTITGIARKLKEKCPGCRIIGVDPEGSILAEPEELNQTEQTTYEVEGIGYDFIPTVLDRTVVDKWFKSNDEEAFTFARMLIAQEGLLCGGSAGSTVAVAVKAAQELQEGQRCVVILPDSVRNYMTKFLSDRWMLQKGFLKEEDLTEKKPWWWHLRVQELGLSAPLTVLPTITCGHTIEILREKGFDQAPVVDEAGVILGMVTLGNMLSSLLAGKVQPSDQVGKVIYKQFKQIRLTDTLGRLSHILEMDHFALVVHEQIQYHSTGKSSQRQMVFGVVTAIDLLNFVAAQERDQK
Chain of UniProt P49840 (whole entry, looked up): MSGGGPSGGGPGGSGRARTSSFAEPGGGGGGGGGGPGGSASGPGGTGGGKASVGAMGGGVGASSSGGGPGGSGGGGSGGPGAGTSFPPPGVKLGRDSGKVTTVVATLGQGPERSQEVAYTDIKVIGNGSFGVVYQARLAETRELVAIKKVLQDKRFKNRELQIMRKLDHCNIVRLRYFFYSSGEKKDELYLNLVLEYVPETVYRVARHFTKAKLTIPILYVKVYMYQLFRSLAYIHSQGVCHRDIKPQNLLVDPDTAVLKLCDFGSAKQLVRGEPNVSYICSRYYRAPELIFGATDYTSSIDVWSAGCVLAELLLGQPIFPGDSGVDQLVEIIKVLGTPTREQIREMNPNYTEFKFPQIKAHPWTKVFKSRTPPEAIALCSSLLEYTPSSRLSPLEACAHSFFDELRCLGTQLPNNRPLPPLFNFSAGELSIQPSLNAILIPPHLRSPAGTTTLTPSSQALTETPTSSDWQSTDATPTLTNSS
Chain of UniProt P9WQN9 (whole entry, looked up): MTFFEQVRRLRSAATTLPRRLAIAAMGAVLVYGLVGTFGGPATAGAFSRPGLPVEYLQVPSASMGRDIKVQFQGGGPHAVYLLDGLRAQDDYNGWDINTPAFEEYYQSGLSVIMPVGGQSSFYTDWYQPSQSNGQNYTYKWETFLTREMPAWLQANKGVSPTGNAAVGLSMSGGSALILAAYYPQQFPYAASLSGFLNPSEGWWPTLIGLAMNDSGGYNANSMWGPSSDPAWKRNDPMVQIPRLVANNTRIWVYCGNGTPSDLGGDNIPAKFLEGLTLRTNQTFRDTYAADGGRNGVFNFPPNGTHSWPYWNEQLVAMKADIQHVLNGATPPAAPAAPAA

C/C(=N/N=c1/scc(-c2ccc(Cl)cc2)n1-c1ccccc1)c1ccc2c(c1)NC(=O)CO2  inhibition (Aldo-keto reductase family 1 member B1; enzyme activity, inhibitor, absorbance; 1 mM): 16.8%
COc1ccc(-c2cn(C)c3nc(Cl)ccc23)cc1  inhibition (Gag-Pol polyprotein, integrase (gag-pol, Human immunodeficiency virus type 1 group M subtype B, UniProt P04585); strand transfer; wild type; 10 µM): 56%
COc1cc(/C=C2\OC(=S)N(c3ccccc3)C2=O)cc(OC)c1OC  inhibition (PPO3; enzyme activity, inhibitor; 25 µM, with: L-tyrosine): < 0%
Cc1ccccc1-c1ccc(F)c(C(=O)NCc2nnc3ccc(C(F)(F)F)cn23)c1  inhibition (IDO1; kynurenine production, inhibitor, refers to: L-kynurenine; A-375; 10 µM, 48 h, with: IFN-γ): 31 ± 29%
COc1cccc(-n2c(-c3ccc(Br)cc3)cs/c2=N/N=C(/C)c2ccc3c(c2)NC(=O)CO3)c1  inhibition (Aldo-keto reductase family 1 member B1; enzyme activity, inhibitor, absorbance; 1 mM): 27.4%
O=C1C(=Cc2ccc(Cl)cc2Cl)CN(CC(=O)c2ccc(F)cc2)CC1=Cc1ccc(Cl)cc1Cl  inhibition (Genome polyprotein NS2B-NS3 protease; protease activity; dengue virus 2; 50 µM): < 10%
O=C(N[C@@H](Cn1ccnc1)c1ccc(-c2ccc(F)cc2)cc1Cl)c1ccc(-c2nnc(-c3ccccc3)o2)cc1  inhibition (Sterol 14-alpha demethylase (CYP51, Trypanosoma cruzi, UniProt Q7Z1V1); enzyme activity, inhibitor; 1 µM, 1 h, equimolar inhibitor/enzyme, with: eburicol 50 µM): inhibited
COc1ccc(/C=C2\OC(=S)N(c3ccccc3)C2=O)cc1O  inhibition (PPO3; enzyme activity, inhibitor; 25 µM): 13.4%
CSCC[C@H](NC(=O)[C@@H](NC(=O)[C@H](CCCNC(=N)N)NC(=O)[C@H](C)N)[C@@H](C)O)C(=O)N[C@H]1CCCCNC(=O)CC[C@@H](C(=O)N[C@H](C(=O)NCC(=O)NCC(=O)N[C@@H](CCCCN)C(=O)N[C@@H](C)C(=O)N2CCC[C@H]2C(=O)N[C@@H](CCCNC(=N)N)C(=O)N[C@@H](CCCCN)C(=O)N[C@@H](CCC(N)=O)C(=O)N[C@@H](CC(C)C)C(=O)N[C@@H](C)C(=O)O)[C@@H](C)O)NC(=O)[C@H](CCCCN)NC(=O)[C@H](C)NC(=O)[C@H](C)NC(=O)[C@H]([C@@H](C)O)NC1=O  inhibition (KDM1A with CoREST; demethylase activity, fluorescence; 500 nM): 0%
O=C(NCc1nnc2ccc(C(F)(F)F)cn12)c1c(F)ccc(Cl)c1Cl  inhibition (IDO1; kynurenine production, inhibitor, refers to: L-kynurenine; A-375; 10 µM, 48 h, with: IFN-γ): 11 ± 1%
C=CCc1cccc(/C=N/C23CC4CC(CC(C4)C2)C3)c1O  inhibition (alkaline phosphatase; enzyme activity; human serum; concentration not given, with: p-nitrophenyl phosphate): inactive
O=C1/C(=C/c2ccc(O)c(Br)c2)OC(=S)N1c1ccccc1  inhibition (PPO3; enzyme activity, inhibitor; 25 µM, with: L-tyrosine): 25%
NNCc1ccc(O)c(O)c1O  inhibition (Cystathionine beta-synthase (CBS, Homo sapiens, UniProt P35520); enzyme activity, inhibitor, fluorescence; 10 µM): 31%
C/C(=N/N=c1/scc(-c2ccc([N+](=O)[O-])cc2)n1-c1c(C)cccc1C)c1ccc2c(c1)OCCO2  inhibition (Aldo-keto reductase family 1 member B1; enzyme activity, inhibitor, absorbance; 1 mM): 23%
COc1ccccc1N1CCN(CC(O)COc2cccc3ccccc23)CC1.Cl.Cl (stereo not shown)  inhibition (SCN10A; sodium influx, inhibitor, FLIPR; HEK293; 10 µM, with: deltamethrin 10 µM): 91.4%
O=C1/C(=C/c2ccc(O)c(O)c2)OC(=S)N1c1ccccc1  inhibition (PPO3; enzyme activity, inhibitor; 25 µM): 30.6%
COc1ccc(-c2ccc(F)c(C(=O)NCc3nnc4ccc(C(F)(F)F)cn34)c2)cc1  inhibition (IDO1; kynurenine production, inhibitor, refers to: L-kynurenine; A-375; 10 µM, 48 h, with: IFN-γ): 49 ± 15%
CSCC[C@H](NC(=O)[C@@H](NC(=O)[C@H](C)NC(=O)[C@H](C)N)[C@@H](C)O)C(=O)N[C@H]1CCCCNC(=O)CC[C@@H](C(=O)N[C@H](C(=O)NCC(=O)NCC(=O)N[C@@H](CCCCN)C(=O)N[C@@H](C)C(=O)N2CCC[C@H]2C(=O)N[C@@H](CCCNC(=N)N)C(=O)N[C@@H](CCCCN)C(=O)N[C@@H](CCC(N)=O)C(=O)N[C@@H](CC(C)C)C(=O)N[C@@H](C)C(=O)O)[C@@H](C)O)NC(=O)[C@H](CCCCN)NC(=O)[C@H](CCCNC(=N)N)NC(=O)[C@H](C)NC(=O)[C@H]([C@@H](C)O)NC1=O  inhibition (KDM1A with CoREST; demethylase activity, fluorescence; 500 nM): 25 ± 8%
CC(C)(C)c1cnc(CSc2cnc(NC(=O)C3CCNCC3)s2)o1  inhibition (Glycogen synthase kinase-3 alpha (GSK3A, Homo sapiens, UniProt P49840); probe labeling, KiNativ live-cell profiling; MOLT-4; 0.25 µM): 31.6%
Cc1ccc(CNC(=O)c2cnn(Cc3ccc(Cn4ccccc4=O)cc3)c2)cc1  inhibition (Plasma kallikrein (KLKB1, Homo sapiens, UniProt P03952); enzyme activity, inhibitor; 0.1 µM): > 30%
C[N+]1(CCCCC[N+]2(C)CCCC2)CCCC1.O=C([O-])C(O)C(O)C(=O)O.O=C([O-])C(O)C(O)C(=O)O  inhibition (SCN10A; sodium influx, inhibitor, FLIPR; HEK293; 10 µM, with: deltamethrin 10 µM): 85.6%
CCCCCCCCCCC[C@H](C[C@@H]1OC(=O)[C@H]1CCCCCC)OC(=O)[C@H](CC(C)C)NC=O  inhibition (Diacylglycerol acyltransferase/mycolyltransferase Ag85C (fbpC, Mycobacterium tuberculosis, UniProt P9WQN9); 100 µM): 57.8 ± 1.6%
O=C(NCc1cccc2ccccc12)c1cccc2cn[nH]c12  inhibition (IDO1; kynurenine production, inhibitor, refers to: L-kynurenine; A-375; 10 µM, 48 h, with: IFN-γ): 2 ± 2%
O.O=C(O)C(O)C(O)C(=O)O.O=C(c1ccc(F)cc1)C1CCN(CCn2c(=O)[nH]c3ccccc3c2=O)CC1  inhibition (SCN10A; sodium influx, inhibitor, FLIPR; HEK293; 10 µM, with: deltamethrin 10 µM): 91.9%
COc1ccc(C(=O)CN2CC(=Cc3ccccc3C)C(=O)C(=Cc3ccccc3C)C2)cc1  inhibition (Genome polyprotein NS2B-NS3 protease; protease activity; dengue virus 2; 50 µM): < 10%
COc1ccc(-c2ccc(F)c(C(=O)NCc3nnc4ccc(Cl)cn34)c2)cc1OC  inhibition (IDO1; kynurenine production, inhibitor, refers to: L-kynurenine; A-375; 10 µM, 48 h, with: IFN-γ): 24 ± 5%
C/C(=N/N=c1/scc(-c2ccc([N+](=O)[O-])cc2)n1-c1ccccc1)c1ccc2c(c1)NC(=O)CO2  inhibition (Aldo-keto reductase family 1 member B1; enzyme activity, inhibitor, absorbance; 1 mM): 20.8%
CC(C)NCC(O)c1ccc(O)c(O)c1.O=C(O)C(O)C(O)C(=O)O (single isomer, unassigned; (+))  inhibition (SCN10A; sodium influx, inhibitor, FLIPR; HEK293; 10 µM, with: deltamethrin 10 µM): 89%

Some of these lines once more:
COc1cc(/C=C2\OC(=S)N(c3ccccc3)C2=O)cc(OC)c1OC  inhibition (PPO3; enzyme activity, inhibitor; 25 µM, with: L-tyrosine): < 0%
Cc1ccccc1-c1ccc(F)c(C(=O)NCc2nnc3ccc(C(F)(F)F)cn23)c1  inhibition (IDO1; kynurenine production, inhibitor, refers to: L-kynurenine; A-375; 10 µM, 48 h, with: IFN-γ): 31 ± 29%
